{"data": "Published values collected from several papers", "Ectonucleoside triphosphate diphosphohydrolase 1": "Ectonucleoside triphosphate diphosphohydrolase 1 (Homo sapiens, UniProt P49961)", "KDM1A": "Lysine-specific histone demethylase 1A (KDM1A, Homo sapiens, UniProt O60341)", "CDC25B": "M-phase inducer phosphatase 2 (CDC25B, Homo sapiens, UniProt P30305)", "note": "± marks the error that the study gave.", "sequence of UniProt P30305 (whole entry, looked up)": "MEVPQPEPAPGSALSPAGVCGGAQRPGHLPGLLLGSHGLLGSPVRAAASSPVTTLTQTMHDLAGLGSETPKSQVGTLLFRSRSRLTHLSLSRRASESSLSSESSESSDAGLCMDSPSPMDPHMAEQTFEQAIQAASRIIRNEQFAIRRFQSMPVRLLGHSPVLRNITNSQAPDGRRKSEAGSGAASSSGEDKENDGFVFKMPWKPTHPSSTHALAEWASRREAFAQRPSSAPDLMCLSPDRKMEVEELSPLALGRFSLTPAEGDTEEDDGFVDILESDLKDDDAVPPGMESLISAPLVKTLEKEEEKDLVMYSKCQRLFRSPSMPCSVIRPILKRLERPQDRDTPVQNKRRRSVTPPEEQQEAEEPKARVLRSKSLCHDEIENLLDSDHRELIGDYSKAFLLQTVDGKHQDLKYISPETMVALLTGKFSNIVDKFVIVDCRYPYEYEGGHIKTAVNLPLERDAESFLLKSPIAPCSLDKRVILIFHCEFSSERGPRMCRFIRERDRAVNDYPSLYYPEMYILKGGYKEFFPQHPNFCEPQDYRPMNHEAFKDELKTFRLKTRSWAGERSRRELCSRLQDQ", "sequence of UniProt P49961 (whole entry, looked up)": "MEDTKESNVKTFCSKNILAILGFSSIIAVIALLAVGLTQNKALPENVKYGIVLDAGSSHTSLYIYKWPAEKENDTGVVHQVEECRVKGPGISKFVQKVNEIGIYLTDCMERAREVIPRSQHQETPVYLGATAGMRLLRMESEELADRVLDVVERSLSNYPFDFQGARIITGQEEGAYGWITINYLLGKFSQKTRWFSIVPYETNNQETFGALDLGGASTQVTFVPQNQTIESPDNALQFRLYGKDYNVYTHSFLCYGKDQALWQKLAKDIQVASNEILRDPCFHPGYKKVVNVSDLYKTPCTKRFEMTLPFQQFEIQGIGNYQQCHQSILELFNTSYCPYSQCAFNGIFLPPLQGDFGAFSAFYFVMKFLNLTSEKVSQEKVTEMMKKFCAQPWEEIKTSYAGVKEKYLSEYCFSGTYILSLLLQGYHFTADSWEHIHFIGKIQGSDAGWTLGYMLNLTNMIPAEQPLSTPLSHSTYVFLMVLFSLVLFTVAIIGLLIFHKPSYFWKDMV", "sequence of UniProt Q9GT49 (whole entry, looked up)": "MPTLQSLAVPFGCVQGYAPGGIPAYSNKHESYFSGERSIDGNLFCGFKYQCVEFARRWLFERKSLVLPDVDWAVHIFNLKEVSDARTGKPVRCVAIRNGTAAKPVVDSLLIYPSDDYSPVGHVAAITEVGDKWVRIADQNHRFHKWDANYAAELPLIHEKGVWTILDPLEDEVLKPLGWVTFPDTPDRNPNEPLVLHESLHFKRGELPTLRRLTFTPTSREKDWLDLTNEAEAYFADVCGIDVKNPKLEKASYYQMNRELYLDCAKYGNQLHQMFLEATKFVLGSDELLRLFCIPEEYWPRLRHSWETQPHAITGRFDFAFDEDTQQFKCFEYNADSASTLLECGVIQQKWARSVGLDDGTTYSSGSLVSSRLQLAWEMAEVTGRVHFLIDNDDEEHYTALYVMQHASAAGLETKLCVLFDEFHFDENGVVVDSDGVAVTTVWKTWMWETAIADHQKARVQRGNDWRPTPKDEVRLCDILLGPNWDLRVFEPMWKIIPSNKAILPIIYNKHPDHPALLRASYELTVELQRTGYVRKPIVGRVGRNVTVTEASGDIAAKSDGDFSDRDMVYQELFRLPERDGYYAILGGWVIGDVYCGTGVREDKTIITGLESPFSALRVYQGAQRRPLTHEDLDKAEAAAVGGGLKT", "sequence of UniProt P43235 (whole entry, looked up)": "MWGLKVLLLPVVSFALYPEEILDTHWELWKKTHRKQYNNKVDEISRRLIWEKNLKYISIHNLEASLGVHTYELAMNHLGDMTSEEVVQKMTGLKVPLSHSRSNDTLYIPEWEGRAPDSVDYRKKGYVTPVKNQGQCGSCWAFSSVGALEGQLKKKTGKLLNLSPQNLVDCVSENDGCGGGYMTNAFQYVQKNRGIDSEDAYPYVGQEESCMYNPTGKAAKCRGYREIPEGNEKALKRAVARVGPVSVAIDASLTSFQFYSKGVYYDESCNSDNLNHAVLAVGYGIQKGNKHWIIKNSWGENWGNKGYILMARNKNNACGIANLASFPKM", "sequence of UniProt Q15910 (whole entry, looked up)": "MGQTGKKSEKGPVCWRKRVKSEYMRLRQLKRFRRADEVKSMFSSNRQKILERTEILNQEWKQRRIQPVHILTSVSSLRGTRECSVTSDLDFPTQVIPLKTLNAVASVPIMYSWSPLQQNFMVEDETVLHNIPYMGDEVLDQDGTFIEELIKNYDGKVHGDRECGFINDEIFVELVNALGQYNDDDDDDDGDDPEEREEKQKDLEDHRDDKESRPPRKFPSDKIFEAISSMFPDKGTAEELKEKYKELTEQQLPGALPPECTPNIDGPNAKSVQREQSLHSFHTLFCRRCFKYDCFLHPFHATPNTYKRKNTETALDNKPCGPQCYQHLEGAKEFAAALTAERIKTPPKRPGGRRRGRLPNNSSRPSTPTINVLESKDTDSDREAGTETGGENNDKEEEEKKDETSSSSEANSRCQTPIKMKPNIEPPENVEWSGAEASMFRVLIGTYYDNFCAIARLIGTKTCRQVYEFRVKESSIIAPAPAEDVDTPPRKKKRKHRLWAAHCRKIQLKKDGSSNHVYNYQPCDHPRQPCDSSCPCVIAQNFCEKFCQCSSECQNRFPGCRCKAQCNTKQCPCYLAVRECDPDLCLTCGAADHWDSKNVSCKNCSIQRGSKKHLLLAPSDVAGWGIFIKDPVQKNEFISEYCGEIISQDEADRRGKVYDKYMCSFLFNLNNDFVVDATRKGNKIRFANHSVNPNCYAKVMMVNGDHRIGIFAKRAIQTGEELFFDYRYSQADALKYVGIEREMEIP", "sequence of UniProt P31639 (whole entry, looked up)": "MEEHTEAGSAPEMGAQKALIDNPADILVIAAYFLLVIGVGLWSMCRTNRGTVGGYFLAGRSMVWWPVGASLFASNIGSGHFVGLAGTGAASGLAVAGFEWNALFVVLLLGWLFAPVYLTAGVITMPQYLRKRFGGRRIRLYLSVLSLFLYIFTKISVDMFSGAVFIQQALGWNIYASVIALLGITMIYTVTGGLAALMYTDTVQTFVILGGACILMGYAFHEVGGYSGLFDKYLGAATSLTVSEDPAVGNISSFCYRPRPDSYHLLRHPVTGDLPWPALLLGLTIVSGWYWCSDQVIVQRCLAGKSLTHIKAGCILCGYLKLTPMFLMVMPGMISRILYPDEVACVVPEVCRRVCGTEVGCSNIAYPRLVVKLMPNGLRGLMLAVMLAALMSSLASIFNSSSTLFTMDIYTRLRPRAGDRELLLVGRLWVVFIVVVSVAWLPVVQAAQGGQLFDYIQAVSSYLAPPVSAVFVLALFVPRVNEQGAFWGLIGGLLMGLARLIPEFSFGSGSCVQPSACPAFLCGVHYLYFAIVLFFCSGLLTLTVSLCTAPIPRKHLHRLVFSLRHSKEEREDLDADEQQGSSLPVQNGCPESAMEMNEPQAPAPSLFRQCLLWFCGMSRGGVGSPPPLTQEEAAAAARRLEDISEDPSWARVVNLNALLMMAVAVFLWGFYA", "sequence of UniProt P51617 (whole entry, looked up)": "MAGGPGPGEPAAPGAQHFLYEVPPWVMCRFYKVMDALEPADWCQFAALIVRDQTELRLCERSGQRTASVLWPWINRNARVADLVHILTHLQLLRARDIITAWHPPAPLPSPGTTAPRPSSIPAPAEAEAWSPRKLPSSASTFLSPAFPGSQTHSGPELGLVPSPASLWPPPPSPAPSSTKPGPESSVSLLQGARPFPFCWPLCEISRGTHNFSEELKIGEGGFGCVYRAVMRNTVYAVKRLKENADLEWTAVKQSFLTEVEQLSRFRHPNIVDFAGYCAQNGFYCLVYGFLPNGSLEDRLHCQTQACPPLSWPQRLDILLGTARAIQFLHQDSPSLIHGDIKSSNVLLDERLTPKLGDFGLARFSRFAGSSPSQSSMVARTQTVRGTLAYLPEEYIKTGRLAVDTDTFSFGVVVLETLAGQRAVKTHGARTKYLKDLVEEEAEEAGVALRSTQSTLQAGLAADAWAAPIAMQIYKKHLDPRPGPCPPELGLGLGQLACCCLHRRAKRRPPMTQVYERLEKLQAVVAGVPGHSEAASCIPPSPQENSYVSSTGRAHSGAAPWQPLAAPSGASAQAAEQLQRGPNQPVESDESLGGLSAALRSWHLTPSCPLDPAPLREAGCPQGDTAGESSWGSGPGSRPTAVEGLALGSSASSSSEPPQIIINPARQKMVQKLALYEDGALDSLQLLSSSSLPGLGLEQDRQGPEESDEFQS", "sequence of UniProt Q9Y6F1 (whole entry, looked up)": "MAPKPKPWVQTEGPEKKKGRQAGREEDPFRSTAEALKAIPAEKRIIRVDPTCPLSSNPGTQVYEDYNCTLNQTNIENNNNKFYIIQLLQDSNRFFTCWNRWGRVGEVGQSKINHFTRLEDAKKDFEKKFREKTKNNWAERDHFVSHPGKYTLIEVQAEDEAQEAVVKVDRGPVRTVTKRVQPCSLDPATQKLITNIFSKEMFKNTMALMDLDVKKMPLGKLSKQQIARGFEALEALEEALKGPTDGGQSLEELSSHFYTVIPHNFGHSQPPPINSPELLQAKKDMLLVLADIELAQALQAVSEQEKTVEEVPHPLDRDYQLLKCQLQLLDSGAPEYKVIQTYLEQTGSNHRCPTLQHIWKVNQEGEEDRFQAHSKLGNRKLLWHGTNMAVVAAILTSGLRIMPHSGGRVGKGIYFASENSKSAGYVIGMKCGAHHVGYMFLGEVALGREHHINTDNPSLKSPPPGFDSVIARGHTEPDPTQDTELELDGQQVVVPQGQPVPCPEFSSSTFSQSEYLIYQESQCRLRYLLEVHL"}
{"Structure (SMILES)": "OCc1ccccc1S[C@@H]1O[C@H](CO)[C@H](O)[C@H](O)[C@H]1O", "target": "SLC5A2 (Homo sapiens, UniProt P31639)", "assay": "transporter uptake, inhibitor, radiometric", "system": "CHO", "conditions": "10 µM", "inhibition": "26.7%"}
{"Structure (SMILES)": "O=C(Nc1nc2ccccc2n1CCN1CCOCC1)c1cccc([N+](=O)[O-])c1", "target": "IRAK1 (Homo sapiens, UniProt P51617)", "assay": "enzyme activity, inhibitor", "conditions": "10 µM", "inhibition": "100%"}
{"Structure (SMILES)": "O=C1NCCC(O)c2ccccc21 (centres unmarked)", "target": "PARP3 (Homo sapiens, UniProt Q9Y6F1)", "assay": "enzyme activity, inhibitor", "conditions": "10 µM", "inhibition": "69%"}
{"Structure (SMILES)": "O=C(O[C@@H]1Cc2c(O)cc(O)cc2O[C@@H]1c1ccc(O)cc1)c1cc(O)c(O)c(O)c1", "target": "Si (Rattus norvegicus, UniProt P23739)", "assay": "enzyme activity, inhibitor", "system": "rat intestinal brush border vesicles", "conditions": "10 µM", "inhibition": "83.5%"}
{"Structure (SMILES)": "CN(Cc1ccccc1)C(=O)c1cccc(S(=O)(=O)N2CCOCC2)c1", "target": "Ectonucleoside triphosphate diphosphohydrolase 1", "assay": "enzyme activity, inhibitor, absorbance", "conditions": "100 µM", "inhibition": "16%"}
{"Structure (SMILES)": "COc1ccc(Cl)cc1NC(=O)Nc1cc(C)nc2ccccc12", "target": "Trypanothione synthetase (Trypanosoma cruzi, UniProt Q9GT49)", "assay": "enzyme activity, inhibitor, absorbance", "conditions": "25 µM", "inhibition": "6.2%"}
{"Structure (SMILES)": "O=C(O)c1cc(S(=O)(=O)N2CCOCC2)ccc1Cl", "target": "Ectonucleoside triphosphate diphosphohydrolase 1", "assay": "enzyme activity, inhibitor, absorbance", "conditions": "100 µM", "inhibition": "12%"}
{"Structure (SMILES)": "Cc1ccc(Nc2nc(SCc3cn(Cc4ccccc4Cl)nn3)nc(-c3ccc(Cl)cc3)c2C#N)cc1", "target": "KDM1A", "assay": "enzyme activity, inhibitor, fluorescence", "conditions": "1 µM", "inhibition": "39.8%"}
{"Structure (SMILES)": "O=C(CCc1cccc(Cl)c1)c1nc2ccccc2[nH]1", "target": "Cathepsin K (CTSK, Homo sapiens, UniProt P43235)", "assay": "enzyme activity", "conditions": "up to 100 µM, with: Z-Phe-Arg-AMC", "inhibition": "inactive"}
{"Structure (SMILES)": "C=CCOC(=O)NCCCC[C@H](NC(=O)[C@H](Cc1ccc(O)cc1)NC(=O)CNC(=O)CNC(=O)[C@@H](NC(=O)[C@H](CO)NC(=O)[C@@H]1CCCN1C(=O)[C@H](C)NC(=O)[C@H](CO)NC(=O)[C@H](CCSC)NC(=O)[C@H](CCCNC(=N)N)NC(=O)[C@H](C)NC(=O)[C@H](C)NC(=O)[C@H](CCCCN)NC(C)=O)[C@@H](C)O)C(=O)NN", "target": "EZH2 (Homo sapiens, UniProt Q15910)", "assay": "enzyme activity, inhibitor, radiometric", "conditions": "50 µM", "inhibition": "53%"}
{"Structure (SMILES)": "N#Cc1c(F)c(F)c2c(N)nc(SCc3ccc4ccccc4c3)nc2c1F", "target": "CDC25B", "assay": "enzyme activity, inhibitor, fluorescence", "conditions": "20 µg/mL", "inhibition": "99%"}
{"Structure (SMILES)": "CCn1c2ccccc2c2cc(CNCCCn3cnnc3)ccc21", "target": "DRD3 (Homo sapiens, UniProt P35462)", "assay": "cell-free assay, inhibitor", "conditions": "10 µM", "inhibition": "63%"}
{"Structure (SMILES)": "CCCCCCCCSc1nc(N)c2c(F)c(C#N)c(F)c(Cl)c2n1", "target": "CDC25B", "assay": "enzyme activity, inhibitor, fluorescence", "conditions": "20 µg/mL", "inhibition": "97.3%"}
{"Structure (SMILES)": "CCOc1cccc(C(=O)Nc2ccc(-c3nc4ccccc4[nH]3)cc2)c1", "target": "Heat shock protein 90, N-terminal domain (Plasmodium falciparum, UniProt Q8IC05)", "assay": "ligand displacement, FP", "conditions": "10 µM", "inhibition": "25%"}
{"Structure (SMILES)": "COCCSc1nc(N)c2c(F)c(C#N)c(F)c(F)c2n1", "target": "CDC25B", "assay": "enzyme activity, inhibitor, fluorescence", "conditions": "20 µg/mL", "inhibition": "96.6%"}
{"Structure (SMILES)": "O=[N+]([O-])c1ccc(Cn2cc(Cn3cc(CO)nn3)nn2)cc1", "target": "1-phosphatidylinositol 4,5-bisphosphate phosphodiesterase delta-1, PH domain (Plcd1, Rattus norvegicus, UniProt P10688)", "assay": "PI(4,5)P2 binding, competitive SPR", "conditions": "5 µM, pH 7.4, PH domain 500 nM", "inhibition": "72 ± 3%"}
{"Structure (SMILES)": "OCCNc1cc(Sc2nnnn2-c2ccccc2)nc(SCc2cn(Cc3ccccc3)nn2)n1", "target": "KDM1A", "assay": "enzyme activity, inhibitor, fluorescence", "conditions": "10 µM", "inhibition": "36.3%"}
